# Published values of several laboratories.
# ± marks the error that the study gave.
SMILES,species,matrix,route,dose,time,with,tissue uptake
N=C(N)NCCC[C@@H]1NC(=O)[C@H](CCCCNC(=O)CCOCCOCCOCCOCCNC(=O)CC[C@H](NC(=O)[C@H](CCCCNC(=O)c2ccc(NN)nc2)NC(=O)c2ccc(NN)nc2)C(=O)NCCOCCOCCOCCOCCC(=O)NCCCC[C@@H]2NC(=O)[C@@H](Cc3ccccc3)NC(=O)[C@H](CC(=O)O)NC(=O)CNC(=O)[C@H](CCCNC(=N)N)NC2=O)NC(=O)[C@@H](Cc2ccccc2)NC(=O)[C@H](CC(=O)O)NC(=O)CNC1=O [technetium-99m labelled],"athymic nude mouse, female, U-87 MG xenograft",intestine,intravenous,0.1 MBq,1 h,,11.4 ± 0.97 %ID/g
CSCC[C@H](NC(=O)[C@H](CC(C)C)NC(=O)[C@H](Cc1c[nH]cn1)NC(=O)CNC(=O)[C@@H](NC(=O)[C@H](C)NC(=O)[C@H](Cc1c[nH]c2ccccc12)NC(=O)[C@H](CCC(N)=O)NC(=O)CCCCCNC(=O)CNC(=O)CNC(=O)CNC(=O)CSC(C)=O)C(C)C)C(N)=O [technetium-99m labelled],"nude mouse, PC-3 xenograft",bone,,,30 min,excess unlabelled conjugate,0.78 ± 0.13 %ID/g
CCCC[C@H](NC(=O)CCCCCCCNC(=O)c1ccc(NN)nc1)C(=O)N[C@H]1CC(=O)NCCCC[C@@H](C(N)=O)NC(=O)[C@H](Cc2c[nH]c3ccccc23)NC(=O)[C@H](CCCNC(=N)N)NC(=O)[C@@H](Cc2ccccc2)NC(=O)[C@H](Cc2c[nH]cn2)NC1=O [technetium-99m labelled],"C57 mouse, B16/F1 melanoma",bone,,,2 h,L-lysine 12 mg co-injected,0.33 ± 0.3 %ID/g
N=C(N)NCCC[C@@H]1NC(=O)[C@H](CCCCNC(=O)CNC(=O)CNC(=O)CNC(=O)c2ccc(NN=Cc3ccccc3S(=O)(=O)O)nc2)NC(=O)[C@@H](Cc2ccccc2)NC(=O)[C@H](CC(=O)O)NC(=O)CNC1=O [technetium-99m labelled],"athymic nu/nu mouse, female, U-87 MG glioma xenograft",kidney,intravenous,,120 min,,3.75 ± 0.48 %ID/g
N=C(N)NCCC[C@@H]1NC(=O)[C@H](CC(=O)NC23CNCCNCC(N)(CNCCNC2)CNCCNC3)NC(=O)[C@@H](Cc2ccccc2)NC(=O)[C@H](CC(=O)O)NC(=O)CNC1=O [copper-64 labelled],"Nu/Nu mouse, male, tumour-bearing",spleen,intravenous,10 µCi,1 h,,1.08 ± 0.34 %ID/g
CCCC[C@H](NC(=O)CNC(=O)CNC(=O)c1ccc(NN)nc1)C(=O)N[C@H]1CC(=O)NCCCC[C@@H](C(N)=O)NC(=O)[C@H](Cc2c[nH]c3ccccc23)NC(=O)[C@H](CCCNC(=N)N)NC(=O)[C@@H](Cc2ccccc2)NC(=O)[C@H](Cc2c[nH]cn2)NC1=O [technetium-99m labelled],"C57 mouse, B16/F1 melanoma",intestines,,,2 h,NDP-MSH 6.07 nmol,0.73 ± 0.21 %ID
N=C(N)NCCC[C@@H]1NC(=O)[C@H](CCCCNC(=O)CNC(=O)CNC(=O)CNC(=O)CC[C@H](NC(=O)c2ccc(NN=Cc3ccccc3S(=O)(=O)O)nc2)C(=O)NCC(=O)NCC(=O)NCC(=O)NCCCC[C@@H]2NC(=O)[C@@H](Cc3ccccc3)NC(=O)[C@H](CC(=O)O)NC(=O)CNC(=O)[C@H](CCCNC(=N)N)NC2=O)NC(=O)[C@@H](Cc2ccccc2)NC(=O)[C@H](CC(=O)O)NC(=O)CNC1=O [technetium-99m labelled],"athymic nu/nu mouse, female, MDA-MB-435 xenograft",liver,intravenous,,30 min,,4.2 ± 0.42 %ID/g
CSCC[C@H](NC(=O)[C@H](CC(C)C)NC(=O)[C@H](Cc1c[nH]cn1)NC(=O)CNC(=O)[C@@H](NC(=O)[C@H](C)NC(=O)[C@H](Cc1c[nH]c2ccccc12)NC(=O)[C@H](CCC(N)=O)NC(=O)[C@H](CC(N)=O)NC(=O)CNC(=O)[C@H](Cc1ccc(O)cc1)NC(=O)[C@H](CCCNC(=N)N)NC(=O)[C@H](CCC(N)=O)NC(=O)[C@@H]1CCCN1C(=O)CN1CCN(CC(=O)O)CCN(CC(=O)O)CCN(CC(=O)O)CC1)C(C)C)C(N)=O [indium-111 labelled],"Swiss nu/nu mouse, male, PC-3 tumour xenograft",colon,intravenous,10 pmol,24 h,,0.6 ± 0.3 %ID/g

# Excerpt of the above:
SMILES,species,matrix,route,dose,time,with,tissue uptake
N=C(N)NCCC[C@@H]1NC(=O)[C@H](CCCCNC(=O)CNC(=O)CNC(=O)CNC(=O)c2ccc(NN=Cc3ccccc3S(=O)(=O)O)nc2)NC(=O)[C@@H](Cc2ccccc2)NC(=O)[C@H](CC(=O)O)NC(=O)CNC1=O [technetium-99m labelled],"athymic nu/nu mouse, female, U-87 MG glioma xenograft",kidney,intravenous,,120 min,,3.75 ± 0.48 %ID/g
